Assay results pooled from the literature.
A part holds a random share of what one study measured.

Sample 1 — technique: competition protein-binding microarray; molecule type: double-stranded DNA, one strand shown; medium: in vitro; concentration: 2 µM; added: Pho4 competitor, 0.05 µM; direction: higher = stronger binding; all sequences stand within: … GTCTTGATTCGCTTGACGCTGCTG
Target: Centromere-binding protein 1, full length, His-tagged (CBF1, Saccharomyces cerevisiae, UniProt P17106, residues 1-351)
Chain of UniProt P17106 (whole entry, looked up): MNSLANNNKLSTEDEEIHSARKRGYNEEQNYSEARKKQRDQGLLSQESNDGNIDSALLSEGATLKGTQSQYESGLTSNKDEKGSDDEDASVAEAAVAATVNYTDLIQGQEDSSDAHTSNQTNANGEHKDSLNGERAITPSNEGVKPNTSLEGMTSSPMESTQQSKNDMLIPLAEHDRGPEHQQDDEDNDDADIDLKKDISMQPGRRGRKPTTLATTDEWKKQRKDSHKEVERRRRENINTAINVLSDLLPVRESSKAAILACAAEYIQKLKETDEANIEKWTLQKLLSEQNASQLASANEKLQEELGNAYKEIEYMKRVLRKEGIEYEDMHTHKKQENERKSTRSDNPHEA
Setting: whole 60-bp probe, lowest competitor level
For `GGAGATAGCCTTTTGAGCGTGATGGCTCTTTCTATA`, the fluorescence intensity was 66.8 a.u.
For `CGGGGTTAAGTTTGGGGCGTGGGTGGCTTGCAGCAG`, the fluorescence intensity was 67.7 a.u.
For `CCGCCCCCCACCTTGCATGCGGATTGGTTGTCCAAA`, the fluorescence intensity was 151 a.u.
With `AAAGCGGTAATTTAGCACGTGTTTTCACATATCTAT` the fluorescence intensity was 2810 a.u.
With `CATACCCAACCTTGGAATGTGGGTGAAGATATTTGT` the fluorescence intensity was 57.9 a.u.
For `TAAATTAGTATACTGCCCGATCAAACCATCTAGTTA`, the fluorescence intensity was 74.7 a.u.
For `CTTTCCCGATCTTGTGTCGTGGGTGTAGCACATTTG`, the fluorescence intensity was 75.4 a.u.

Sample 2 — technique: RNA Bind-n-Seq; molecule type: RNA; medium: in vitro; concentration: 365 nM; reference: no-protein control; direction: higher = stronger binding
Target: RNA binding protein fox-1 homolog 2, RRM domain, GST-SBP tag (RBFOX2, Homo sapiens, UniProt O43251-10, residues 100-194)
Setting: natural RNA segment, single round, ends assumed
All sequences stand within: GGGAGUUCUACAGUCCGACGAUC … UGGAAUUCUCGGGUGCCAA
Residues (chain): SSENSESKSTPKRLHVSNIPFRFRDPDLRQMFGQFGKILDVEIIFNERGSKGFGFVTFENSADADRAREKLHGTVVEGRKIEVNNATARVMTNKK
`GCAAGGGGCUGCAUGACCUACCAGGACAGAACUUUCCCCAAUUACAGGGUGACUCACAGCCGCAUUGGUGACUCACUUCAAUGUGUCAUUUCCGGCUGCUGUGUGUGAGC`: “RBNS enrichment (R)” 17.1.
For `GUGAUAAGGUAACAUGGGGUUUUUCUGGGCCAGCCUUUAGAACACUGUUAGGGUACAUACGCUACCUUGAUGAAAGGGACCUUCGUGCAACUGUAGUCAUCUUAAAGGCU`, “RBNS enrichment (R)” read 0.313.
For `GGUGCCUCUGGACUGCAGGAGAAAGGCGUCGUGCCAGGCAGUAUCCUGUGGAGGGAGGAGGGUGUACGUUCGUUUACUAUGGAUAGUUUUUCCUUUGAAUUAAAUUGUAG`, “RBNS enrichment (R)” read 0.659.
For `UUUCCAUAUUUUAAUUAUCAAAAUGACCAUAUCAGACUUAUUCCUGGGUAAAUUGCAUUUCAAACUAACUCAAUAUUCAGUGUUUUUGUUAAAACCUUGAACACUCCAGU`, “RBNS enrichment (R)” read 0.896.
`ACAUACCAGGUCAGGGAGGGCCGAUCCUUCCUCCACCUUUUUCCUGGCAUAUGUUUAAGGUAACAAAAAGAUCAGGAGUUGCCUCUGGCCUCUAAAGUGCCAAGGGACCA`: “RBNS enrichment (R)” 0.31.
`UUUGUUUUGUUUUGUUUAAUAAGGUCCCAUGGCUUCUUUGGGAAUCCACGAUAAGAAAAACAACCCCACCAAUCAGAUAGCGGAGCCUGUUAUUUGAAGCUGCAGAGCCA`: “RBNS enrichment (R)” 0.45.
For `CUCUGGCCCUUGGACUAUGGAAACGUGGGAGGGGCAGGGGAGAUGUGGGGAAGUCCAGGACUCCAGGAGGUGAAAAGGAAAAAAAAAAAAAAAUGUACCUGAUUGCUCCC`, “RBNS enrichment (R)” read 0.34.
For `UCUGGAAUUGAUGUUUACAUGUCUGUUGUUGGUCAUCUCUCCUGUGUCUUAAAUACUUUAAUGUUGGAAGAGCAUAGUGUUUGGGCUAGUGGGUUUCUGACAGCCCAUGG`, “RBNS enrichment (R)” read 0.49.
`UGUCUGACACACAAAUGGUCUUUUCAGCCACAGUCUUAUCAAGUAUCCUAUAUGUAUUCCUUUCUAAACUGCUACUCAUGAAUGAGGAAAGUCUGAUGCUAAGAUACUGC` — result for “RBNS enrichment (R)”: 1.13.

Sample 3 — technique: RNA Bind-n-Seq; molecule type: RNA; medium: in vitro; concentration: not given; reference: input RNA pool; direction: higher = stronger binding
Target: RING finger protein unkempt homolog, zinc fingers 1-6, GST-SBP tag (UNK, Homo sapiens, UniProt Q9C0B0, residues 30-357)
Setting: RNA with constant flanks, human and mouse sites, ends assumed
All sequences stand within: GGGAGUUCUACAGUCCGACGAUC … CAACAGAGGAUUGAGCAUCA
Construct (chain): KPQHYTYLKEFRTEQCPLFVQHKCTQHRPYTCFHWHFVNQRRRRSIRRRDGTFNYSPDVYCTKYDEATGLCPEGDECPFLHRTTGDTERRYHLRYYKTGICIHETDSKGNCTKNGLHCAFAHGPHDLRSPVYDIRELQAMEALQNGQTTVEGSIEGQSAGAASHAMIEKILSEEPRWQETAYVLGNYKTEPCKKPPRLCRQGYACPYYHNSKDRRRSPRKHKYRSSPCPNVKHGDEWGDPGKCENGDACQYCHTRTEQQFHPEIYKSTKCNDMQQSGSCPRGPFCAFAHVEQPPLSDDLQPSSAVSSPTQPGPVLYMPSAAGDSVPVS
`GCAGACAGUGACCCAUUUUCAACUGACACUUUGAGUUCACGCCCUCUCAGUGAGACAAGAAGUGAUUUCUGUCCCUCUUCCAGUGACCUUGACUCAGCUGGCCAGGACCCCAGUGCCAAU` has a bound/input enrichment of 0.136 ratio.
With `GAAUCAAGGAUAUCAUUUGAGGAUGUGGCUGUAGACUUCUCCUGGGACCAGUGGCAGCUGCUUAGCCCUACUCAAAAGAGUUUAUACAGAGAUGUGAUGUUGGAGAACUGCAGCAGCCUU` the bound/input enrichment was 0.437 ratio.
`GAUGUCUGUGUGUUCGCAGCACAAGAAGACCUAGAGACCAUGCAAGCAUUCGCUCAGGUUUUUAACAAGCUAAUCAGGCGCUACAAAUACCUGGAGAAAGGUUUUGAAGAUGAAGUUAAA` has a bound/input enrichment of 0.208 ratio.
With `GUGUUCGAGGAGAUGAACGUGGAUCUGCAGGAGGAGCUGCCAUCCCUGUGGAACAGCCGUGUAGGUUUCUAUGUCAACACGUUCCAGAGCAUCGCGGGUCUGGAGGAAAACUUCCAUAAA` the bound/input enrichment was 0.119 ratio.
`GCUUUUGAUGACGCAAUUGCAGAACUGGACACGCUGAGUGAAGAAAGCUAUAAGGACUCUACGCUCAUCAUGCAGCUGCUACGUGAUAACCUGACGCUGUGGACCUCAGACAUGCAGGGU` gave a bound/input enrichment of 0.123 ratio.
The bound/input enrichment of `CUGAAAACACUCUUCUGCUACUUUCGAAGAGUCACAGAGAAAAAACCUACAGGAUUGGUGACAUUUACAAGACAGAGUCUUGAAGAUUUUCCAGAAUGGGAAAGGUGUGAAAAGCCUCUG` is reported as 0.093 ratio.
With `CCCCGGGCUGUUUCACAAGCAAGUGGUUUUCAUUAACUCACAAAGCCUUUUUGGACAUUAAUAUUUAUUUAUUUUUGUUUUUGUAUACACAUUACCCAGCAUCUCUUUUGUAUAAGAGAC` the bound/input enrichment was 0.315 ratio.
The bound/input enrichment of `AUAUGUCUUAUAUUUUCCUGUGACUCUGGAAACUAAACCAUUGUGUGUCUUGUCGUGUCCUAGUUGAGCUGGGGCCUAGCAGCUUCCUUCCAGUGGGUGUGGAGCAAACGUGUAUGUCGC` is reported as 0.291 ratio.

Other studies, line by line
For `PhoQ, residues 284 288 289 292 302 303 QWGLFV`, the fold induction was 2.67 (PhoP, residues 12 14 15 18 19 SMASL (Escherichia coli, UniProt P23836); Sort-seq, measured: YFP reporter; E. coli; PhoQ-PhoP variant library, added: 10 µM Mg2+; reference: high Mg2+ state, higher = stronger signaling).

Excerpt of the above (sample 1):
For `CGGGGTTAAGTTTGGGGCGTGGGTGGCTTGCAGCAG`, the fluorescence intensity was 67.7 a.u.
For `CCGCCCCCCACCTTGCATGCGGATTGGTTGTCCAAA`, the fluorescence intensity was 151 a.u.
With `AAAGCGGTAATTTAGCACGTGTTTTCACATATCTAT` the fluorescence intensity was 2810 a.u.
With `CATACCCAACCTTGGAATGTGGGTGAAGATATTTGT` the fluorescence intensity was 57.9 a.u.
